Experimental data gathered from unrelated publications.
Protocols differ between the studies behind these lines. pIC50: −log10 of the molar value.
Cell line: Vero

SMILES | effect on | method | tested at | time | measurement | value
CSc1c(-c2nc3ccccc3s2)c(N)n(NS(=O)(=O)c2ccc(C)cc2)c(=O)c1C#N | – | – | – | 72 h | maximum non-toxic concentration | 110 µg/mL
CC[C@@H]1/C=C(\C)C[C@H](C)C[C@H](OC)[C@H]2O[C@@](O)(C(=O)C(=O)N3CCCC[C@H]3C(=O)O[C@H](/C(C)=C/[C@@H]3CC[C@H](Cl)[C@H](OC)C3)[C@H](C)[C@@H](O)CC1=O)[C@H](C)C[C@@H]2OC | – | Alamar Blue | – | 96 h | CC50 | 346 µM
Cc1ccc(S(=O)(=O)Nc2nc(N)c(-c3nc4ccccc4s3)c(-c3ccccc3)n2)cc1 | cytotoxicity | – | – | 72 h | maximum non-toxic concentration | 90 µg/mL
CCOC(=O)c1cc(C#N)c(=O)n(NS(=O)(=O)c2ccccc2)c1N | – | – | – | 72 h | maximum non-toxic concentration | 90 µg/mL
CO[C@H]1/C=C/O[C@@]2(C)Oc3c(C)c(O)c4c(c3C2=O)C2=NC3(CCN(CC(C)C)CC3)NC2=C(NC(=O)/C(C)=C\C=C\[C@H](C)[C@H](O)[C@@H](C)[C@@H](O)[C@@H](C)[C@H](OC(C)=O)[C@@H]1C)C4=O | – | Alamar Blue | – | 96 h | CC50 | 17.3 µM
Cc1ccc(S(=O)(=O)Nc2nc(N)c(-c3nc4ccccc4s3)c(-c3ccc(F)cc3)n2)cc1 | cytotoxicity | – | – | 72 h | maximum non-toxic concentration | 100 µg/mL
CCSC(SCC)=C(C#N)c1nc2ccccc2s1 | – | – | – | 72 h | maximum non-toxic concentration | 110 µg/mL
COc1ccc2c(Cc3ccccc3F)c3n(c(=O)c2c1OC)CCc1cc2c(cc1-3)OCO2 | cytotoxicity | CCK-8 | – | 24 h | pIC50 | 4.07
Cc1ccc(S(=O)(=O)Nn2c(N)c(C#N)cc(C#N)c2=O)cc1 | – | – | – | 72 h | maximum non-toxic concentration | 90 µg/mL
CCN(CC)CCCC(C)Nc1ccnc2cc(Cl)ccc12 (stereo not shown) | cytotoxicity | Neutral Red uptake | – | 48 h | IC50 | > 4.76 µg/mL
CSc1c(-c2nc3ccccc3[nH]2)c(N)n(NS(=O)(=O)c2ccccc2)c(=O)c1C#N | – | – | – | 72 h | maximum non-toxic concentration | 100 µg/mL
O=C(Cn1ccnc1[N+](=O)[O-])NCc1ccccc1 | – | Alamar Blue | – | 96 h | CC50 | > 200 µM
CC[C@@H](C)[C@H]1O[C@@H](c2c(O)c(-c3ccccc3)cn(O)c2=O)[C@H](C)C[C@@H]1C | – | neutral red | concentration not given | – | cytotoxicity | toxic
COc1ccc(-c2nc(N)nc(N)c2-c2nc3ccccc3s2)cc1 | cytotoxicity | – | – | 72 h | maximum non-toxic concentration | 80 µg/mL
COc1cccc2c1C(=O)c1c(O)c3c(c(O)c1C2=O)C[C@@](O)(C(=O)CO)C[C@@H]3O[C@H]1C[C@H](N)[C@H](O)[C@H](C)O1 | cytotoxicity | neutral red | – | 48 h | IC50 | > 5 µg/mL
CC(=O)CNc1nc(NS(=O)(=O)c2ccccc2)ncc1-c1nc2ccccc2s1 | cytotoxicity | – | – | 72 h | maximum non-toxic concentration | 80 µg/mL
CO[C@@]1(NC(=O)C2SC(=C(C(N)=O)C(=O)O)S2)C(=O)N2C(C(=O)O)=C(CSc3nnnn3C)CS[C@@H]21 (stereo partly shown) | – | Alamar Blue | – | 96 h | CC50 | > 400 µM
Cc1ccc(-c2nc(N)nc(N)c2-c2nc3ccccc3s2)cc1 | cytotoxicity | – | – | 72 h | maximum non-toxic concentration | 110 µg/mL
CO[C@H]1/C=C/O[C@@]2(C)Oc3c(C)c(O)c4c(O)c(c(/C=N/N5CCN(C6CCCC6)CC5)c(O)c4c3C2=O)NC(=O)/C(C)=C\C=C\[C@H](C)[C@H](O)[C@@H](C)[C@@H](O)[C@@H](C)[C@H](OC(C)=O)[C@@H]1C | – | Alamar Blue | – | 96 h | CC50 | 21.4 µM
COc1ccc(-c2nc(NS(=O)(=O)c3ccccc3)nc(N)c2-c2nc3ccccc3s2)cc1 | cytotoxicity | – | – | 72 h | maximum non-toxic concentration | 100 µg/mL
CCN(CC)CCCC(C)Nc1ccnc2cc(Cl)ccc12 (stereo not shown) | cytotoxicity | neutral red | – | 48 h | IC50 | > 4.76 µg/mL
COc1ccc(-c2nc(NS(=O)(=O)c3ccc(C)cc3)nc(N)c2-c2nc3ccccc3s2)cc1 | cytotoxicity | – | – | 72 h | maximum non-toxic concentration | 90 µg/mL
CO[C@H]1C[C@@H]2CC[C@@H](C)[C@@](O)(O2)C(=O)C(=O)N2CCCC[C@H]2C(=O)O[C@H]([C@H](C)C[C@@H]2CC[C@@H](O)[C@H](OC)C2)CC(=O)[C@H](C)/C=C(\C)[C@@H](O)[C@@H](OC)C(=O)[C@H](C)C[C@H](C)/C=C/C=C/C=C/1C | – | Alamar Blue | – | 96 h | CC50 | 16.3 µM
Nc1nc(NS(=O)(=O)c2ccccc2)nc(-c2ccc(F)cc2)c1-c1nc2ccccc2s1 | cytotoxicity | – | – | 72 h | maximum non-toxic concentration | 100 µg/mL
N#Cc1cc(C#N)c(=O)n(NS(=O)(=O)c2ccccc2)c1N | – | – | – | 72 h | maximum non-toxic concentration | 100 µg/mL
